Published values from different studies.
Lines come from different studies, so protocols differ.
Organism: Klebsiella pneumoniae

CC[C@H]1OC(=O)[C@H](C)[C@@H](OC(=O)Cc2ccccc2[N+](=O)[O-])[C@H](C)[C@@H](O[C@@H]2O[C@H](C)C[C@H](N(C)C)[C@H]2O)[C@](C)(OC)C[C@@H](C)C(=O)[C@H](C)[C@@H](O)[C@]1(C)O gave an MIC of over 32 µg/mL (microbial growth; ATCC700603).
CC[C@H](C)[C@@H]1NC(=O)[C@@H](CC(C)C)NC(=O)[C@H](CCN)NC(=O)[C@@H](NC(=O)[C@@H](CO)NC(=O)[C@@H](NC(=O)[C@H](CCN)NC(=O)c2ccc(-c3ccccc3)cc2)[C@@H](C)O)CCNC(=O)[C@H](CC(C)C)NC(=O)[C@H](CCN)NC(=O)[C@H](CCN)NC1=O gave an MIC of 0.5 to 1 µg/mL (broth microdilution; ATCC 19606).
With C#CCOc1ccc(CN[C@@]2(C)C[C@H](O[C@H]3[C@H](Oc4c5cc6cc4Oc4ccc(cc4Cl)[C@@H](O)[C@@H](NC(=O)[C@@H](CC(C)C)NC)C(=O)N[C@@H](CC(N)=O)C(=O)N[C@H]6C(=O)N[C@H]4C(=O)N[C@H](C(=O)N[C@H](C(=O)N[C@@H](CCCNC(=N)N)C(N)=O)c6cc(O)cc(O)c6-c6cc4ccc6O)[C@H](O)c4ccc(c(Cl)c4)O5)O[C@H](CO)[C@@H](O)[C@@H]3O)O[C@@H](C)[C@H]2O)cc1OC the MIC was 128 µg/mL (broth microdilution; ATCC 13883, cation-adjusted Mueller-Hinton broth; 18 to 20 h, 37 °C, 0.002% polysorbate 80).
COc1c(NC(=O)c2ccc(NC(=O)c3ccc(NC(=O)[C@H](Cc4c[nH]nn4)NC(=O)c4ccc(NC(=O)/C(C)=C/c5ccc(O)cc5)cc4)cc3)c(OC)c2O)ccc(C(=O)O)c1O gave an MIC of 16 µg/mL (microbial growth, broth dilution).
For CN[C@H](CC(C)C)C(=O)N[C@H]1C(=O)N[C@@H](CC(N)=O)C(=O)N[C@H]2C(=O)N[C@H]3C(=O)N[C@H](C(=O)N[C@H](C(=O)N[C@@H](CCCNC(=N)N)C(N)=O)c4cc(O)cc(O)c4-c4cc3ccc4O)[C@H](O)c3ccc(c(Cl)c3)Oc3cc2cc(c3O[C@@H]2O[C@H](CO)[C@@H](O)[C@H](O)[C@H]2O[C@H]2C[C@](C)(NCc3ccc(OCc4cn(CC(=O)N[C@H](C(=O)N[C@@H](CCN)C(=O)N[C@H]5CCNC(=O)[C@H]([C@@H](C)O)NC(=O)[C@H](CCN)NC(=O)[C@H](CCN)NC(=O)[C@H](CC(C)C)NC(=O)[C@@H](CC(C)C)NC(=O)[C@H](CCN)NC5=O)[C@@H](C)O)nn4)c(OC)c3)[C@H](O)[C@H](C)O2)Oc2ccc(cc2Cl)[C@H]1O, the MIC was 16 µg/mL (broth microdilution; ATCC 27736, cation-adjusted Mueller-Hinton broth; 18 to 20 h, 37 °C, 0.002% polysorbate 80).
For CCCCCCCC[N+](C)(C)CCCCCCCCCCOc1cc(OCCCCCCCCCC[N+](C)(C)CCCCCCCC)cc(OCCCCCCCCCC[N+](C)(C)CCCCCCCC)c1.[Br-].[Br-].[Br-], the MIC was 63 µM (ATCC 4352).
With CC1(C)[C@H](NC(=O)/C(=N\OCCN)c2csc(N)n2)C(=O)N1OS(=O)(=O)O the MIC was 16 µg/mL (agar dilution; 16-14, ESBL-producing).
CC[C@H]1OC(=O)[C@H](C)C(=O)[C@H](C)[C@@H](O[C@@H]2O[C@H](C)C[C@H](N(C)C)[C@H]2O)[C@](C)(OC)C[C@@H](C)C(=O)[C@H](C)[C@H]2N(CCCCn3cnc(-c4cccnc4)c3)C(=O)O[C@]12C gave an MIC of over 32 µg/mL (microbial growth; ATCC700603).
For CCCCCCCCCC[N+](C)(C)CCCCCCCCOc1cc(OCCCCCCCC[N+](C)(C)CCCCCCCCCC)cc(OCCCCCCCC[N+](C)(C)CCCCCCCCCC)c1.[Br-].[Br-].[Br-], the MIC was 125 µM (ATCC 4352).
With CC[C@H]1OC(=O)[C@H](C)[C@@H](OC(=O)Cc2c(F)cc([N+](=O)[O-])cc2F)[C@H](C)[C@@H](O[C@@H]2O[C@H](C)C[C@H](N(C)C)[C@H]2O)[C@](C)(OC)C[C@@H](C)C(=O)[C@H](C)[C@@H](O)[C@]1(C)O the MIC was over 32 µg/mL (microbial growth; ATCC700603).
For CC(C)(O/N=C(\C(=O)N[C@@H]1C(=O)N(OS(=O)(=O)O)C1(C)C)c1nsc(N)n1)C(=O)O, the MIC was over 64 µg/mL (agar dilution; 16-14, ESBL-producing).
CCCCCCCCCCn1cc[n+](CCCCCCCCCCOc2cc(OCCCCCCCCCC[n+]3ccn(CCCCCCCCCC)c3)cc(OCCCCCCCCCC[n+]3ccn(CCCCCCCCCC)c3)c2)c1.[Br-].[Br-].[Br-] has an MIC of 125 µM (ATCC 4352).
For C#CCO/N=C(\C(=O)N[C@@H]1C(=O)N(OS(=O)(=O)O)C1(C)C)c1csc(N)n1, the MIC was 1 µg/mL (agar dilution; 16-14, ESBL-producing).
CC[C@H](C)[C@H](NC(=O)[C@H](CCCNC(=N)N)NC(=O)[C@H](CC(=O)O)NC(=O)[C@H](CCCNC(=N)N)NC(=O)[C@H](CC(C)C)NC(=O)[C@H](CC(N)=O)NC(=O)[C@H](CCCNC(=N)N)NC(=O)[C@@H](N)Cc1ccccc1)C(=O)N[C@@H](CCCCN)C(=O)N[C@@H](CC(N)=O)C(=O)N[C@@H](CCCCN)C(=O)N[C@@H](Cc1ccccc1)C(=O)N[C@@H](CCC(=O)O)C(=O)N[C@@H](CC(N)=O)C(=O)N[C@@H](C)C(=O)N[C@@H](CC(C)C)C(=O)N[C@@H](CCCCN)C(=O)N[C@@H](CC(N)=O)C(=O)N[C@H](C(=O)N[C@H](C(=O)N[C@@H](CC(N)=O)C(=O)N[C@@H](CCCCN)C(=O)N[C@@H](CC(C)C)C(=O)N[C@@H](Cc1ccccc1)C(=O)N1CCC[C@H]1C(=O)O)[C@@H](C)CC)C(C)C gave an MIC of 64 µg/mL (broth microdilution; ATCC 43816; 16 h, 37 °C, cation-adjusted Mueller-Hinton broth).
For CC[C@H](C)[C@H](NC(=O)[C@@H](CCCNC(=N)N)NC(=O)[C@H](CCCNC(=N)N)NC(=O)[C@@H]1CCCN1C(=O)[C@@H]1CCCN1C(=O)[C@H](CCCCN)NC(=O)[C@@H]1CCCN1C(=O)[C@H](CCCNC(=N)N)NC(=O)[C@@H]1CCCN1C(=O)[C@H](CC(C)C)NC(=O)[C@H](Cc1ccc(O)cc1)NC(=O)[C@@H]1CCCN1C(=O)[C@@H]1CCCN1C(=O)[C@H](CCCCN)NC(=O)[C@H](CC(=O)O)NC(=O)[C@@H](N)C(C)C)C(=O)N[C@@H](Cc1ccc(O)cc1)C(=O)N[C@@H](CC(N)=O)C(=O)N[C@H](CCCNC(=N)N)C(N)=O, the MIC was 8 µg/mL (broth microdilution; DSM 681; 18 h, 37 °C, 25% MHB2).
CC(C)C[C@@H]1NC(=O)[C@@H](CC(C)C)NC(=O)[C@H](CCN)NC(=O)[C@@H](NC(=O)[C@H](CCN)NC(=O)[C@@H](N)[C@@H](C)O)CCNC(=O)[C@H]([C@@H](C)O)NC(=O)[C@H](CCN)NC(=O)[C@H](CCN)NC1=O gave an MIC of over 128 µg/mL (broth microdilution; ATCC 13883, cation-adjusted Mueller-Hinton broth; 18 to 20 h, 37 °C, 0.002% polysorbate 80).
With CC(=O)NC[C@H]1CN(c2ccc(N3CCN(C(=O)CN)CC3)c(F)c2)C(=O)O1 the MIC was over 128 µM (microbial growth, broth dilution; ATCC27736).
C=CCO/N=C(\C(=O)N[C@@H]1C(=O)N(S(=O)(=O)O)[C@H]1C)c1csc(N)n1 gave an MIC of 4 µg/mL (agar dilution; ATCC 700603 ESBL).
The MIC of CCCCCCCCCCn1cc[n+](CCCCOc2cc(OCCCC[n+]3ccn(CCCCCCCCCC)c3)cc(OCCCC[n+]3ccn(CCCCCCCCCC)c3)c2)c1.[Br-].[Br-].[Br-] is reported as 1 µM (ATCC 4352).
CC1(C)[C@H](NC(=O)/C(=N\OCc2cc(=O)c(O)cn2O)c2csc(N)n2)C(=O)N1OS(=O)(=O)O has an MIC of 32 µg/mL (agar dilution; ATCC 700603 ESBL).
With CCCCCCCCCC[N+](C)(C)CCCCOc1cc(OCCCC[N+](C)(C)CCCCCCCCCC)cc(OCCCC[N+](C)(C)CCCCCCCCCC)c1.[Br-].[Br-].[Br-] the MIC was 1 µM (ATCC 4352).
C#CCO/N=C(\C(=O)N[C@@H]1C(=O)N(OS(=O)(=O)O)C1(C)C)c1nsc(N)n1 has an MIC of over 64 µg/mL (agar dilution; ATCC 700603, ESBL-producing).
The MIC of CCCCCCCCCCCC[N+](C)(C)CCCCCCCCOc1cc(OCCCCCCCC[N+](C)(C)CCCCCCCCCCCC)cc(OCCCCCCCC[N+](C)(C)CCCCCCCCCCCC)c1.[Br-].[Br-].[Br-] is reported as 125 µM (ATCC 4352).
C=CCO/N=C(\C(=O)N[C@@H]1C(=O)N(OS(=O)(=O)O)C1(C)C)c1nsc(N)n1 gave an MIC of 32 µg/mL (agar dilution; ATCC 700603, ESBL-producing).
c1ccc(CN2CCOCCOCCN(CCCCCCCCCCCCCCN3CCOCCOCCN(CCCCCCCCCCCCCCN4CCOCCOCCN(Cc5ccccc5)CCOCCOCC4)CCOCCOCC3)CCOCCOCC2)cc1 has an MIC of 10 µM (ATCC BAA-2146).
With CN[C@H](CC(C)C)C(=O)N[C@H]1C(=O)N[C@@H](CC(N)=O)C(=O)N[C@H]2C(=O)N[C@H]3C(=O)N[C@H](C(=O)N[C@H](C(=O)NCC(N)=O)c4cc(O)cc(O)c4-c4cc3ccc4O)[C@H](O)c3ccc(c(Cl)c3)Oc3cc2cc(c3O[C@@H]2O[C@H](CO)[C@@H](O)[C@H](O)[C@H]2O[C@H]2C[C@](C)(NCc3ccc(OCc4cn(CC(=O)N[C@H](C(=O)N[C@@H](CCN)C(=O)N[C@H]5CCNC(=O)[C@H]([C@@H](C)O)NC(=O)[C@H](CCN)NC(=O)[C@H](CCN)NC(=O)[C@H](CC(C)C)NC(=O)[C@@H](CC(C)C)NC(=O)[C@H](CCN)NC5=O)[C@@H](C)O)nn4)c(OC)c3)[C@H](O)[C@H](C)O2)Oc2ccc(cc2Cl)[C@H]1O the MIC was 16 µg/mL (broth microdilution; ATCC 13883, cation-adjusted Mueller-Hinton broth; 18 to 20 h, 37 °C, 0.002% polysorbate 80).
CC1(C)[C@H](NC(=O)/C(=N\OCC(=O)N2CCC(C(=O)O)CC2)c2csc(N)n2)C(=O)N1OS(=O)(=O)O gave an MIC of 32 µg/mL (agar dilution; 16-14, ESBL-producing).

Repeated from above:
With CCCCCCCCCC[N+](C)(C)CCCCOc1cc(OCCCC[N+](C)(C)CCCCCCCCCC)cc(OCCCC[N+](C)(C)CCCCCCCCCC)c1.[Br-].[Br-].[Br-] the MIC was 1 µM (ATCC 4352).
The MIC of CCCCCCCCCCn1cc[n+](CCCCOc2cc(OCCCC[n+]3ccn(CCCCCCCCCC)c3)cc(OCCCC[n+]3ccn(CCCCCCCCCC)c3)c2)c1.[Br-].[Br-].[Br-] is reported as 1 µM (ATCC 4352).
